Published values collected from several papers.
Each numbered part is a random draw from the data of one study; scales do not carry over between parts.

Set 1
Target: Interferon regulatory factor 7, full length, phosphomimetic (IRF7, Homo sapiens, UniProt Q92985, residues 1-503, S471D/S472D/S475D/S476D/S477D/S483D/S484D/S487D)
Technique: protein-binding microarray
Molecule type: double-stranded DNA, one strand shown
Sample: in vitro
Tested at: 2200 nM top
Notes: 60-bp whole probe
Together with: salmon DNA 0.4 mg/ml
Reference: random background probes
Reading: higher = stronger binding
Measurement: fitted relative affinity
Constant ends, left off below: GCCTAGCAC … GTCTTGATTCGCTTGACGCTGCTG
Residues (chain): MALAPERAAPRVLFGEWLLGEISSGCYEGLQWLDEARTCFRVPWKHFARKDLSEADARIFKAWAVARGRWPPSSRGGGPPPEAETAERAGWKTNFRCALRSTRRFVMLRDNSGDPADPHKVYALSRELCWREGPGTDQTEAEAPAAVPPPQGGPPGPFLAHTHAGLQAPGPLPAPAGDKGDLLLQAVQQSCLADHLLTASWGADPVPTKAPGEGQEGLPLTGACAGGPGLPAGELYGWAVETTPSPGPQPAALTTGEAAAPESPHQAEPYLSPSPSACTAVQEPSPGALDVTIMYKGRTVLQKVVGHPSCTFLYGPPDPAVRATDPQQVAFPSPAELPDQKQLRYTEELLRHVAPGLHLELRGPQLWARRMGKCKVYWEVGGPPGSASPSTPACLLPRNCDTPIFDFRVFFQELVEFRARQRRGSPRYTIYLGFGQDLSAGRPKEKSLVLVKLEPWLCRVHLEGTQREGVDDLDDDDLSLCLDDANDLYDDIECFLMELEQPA
TCAAGTGTTTTTCTCCTACTGTGCTAG: 1.39 z-score
TTCGAATTCAGAATGGGAGAGTGCTAG: -0.0111 z-score
TTAGGTATCGGTCTAGGTTAGTGCTAG: 0.545 z-score
TTTGCTTTCCTTTGCTTTCTGTGCTAG: 4.15 z-score
TACGGTTTCCTTATCCTGACGTGCTAG: 3.28 z-score
TCACTCTTCTTTTGCTAACTGTGCTAG: 1.94 z-score
AGGTTGATGGCTCTCTGGACGTGCTAG: -0.127 z-score
GACGGTTTCGGTTTTCGGGACGTGCTA: 12.4 z-score
GACGGTCTCGGACTGCGGACGTGCTAG: -0.332 z-score
TTAGATTTCAGTTACGATTAGTGCTAG: 0.663 z-score
GACGGACTGGGTCTCGGGGCGTGCTAG: -0.884 z-score
TCATTTTTTTTTTTTACACTGTGCTAG: 2.26 z-score
TTAGGACTGGACATTGGGTTAGTGCTA: -0.481 z-score
TTAGATTTAAGTATCGATTAGTGCTAG: -0.149 z-score
GACATCCCCAGTCTCATATTGTGCTAG: 1.07 z-score
TCAGTTGTAGTTTTCATACTGTGCTAG: 1.54 z-score
GAAGACTTTGGTTTGTACACGTGCTAG: 0.287 z-score
GACGGTCTCGGTCTCGTGACGTGCTAG: 0.112 z-score
TTAGGACTGGGAATCGGTTAGTGCTAG: -0.246 z-score

Set 2
Target: Sal-like protein 4, full length isoform A (SALL4, Homo sapiens, UniProt Q9UJQ4, residues 1-1053)
Sequence of UniProt Q9UJQ4 (whole entry, looked up): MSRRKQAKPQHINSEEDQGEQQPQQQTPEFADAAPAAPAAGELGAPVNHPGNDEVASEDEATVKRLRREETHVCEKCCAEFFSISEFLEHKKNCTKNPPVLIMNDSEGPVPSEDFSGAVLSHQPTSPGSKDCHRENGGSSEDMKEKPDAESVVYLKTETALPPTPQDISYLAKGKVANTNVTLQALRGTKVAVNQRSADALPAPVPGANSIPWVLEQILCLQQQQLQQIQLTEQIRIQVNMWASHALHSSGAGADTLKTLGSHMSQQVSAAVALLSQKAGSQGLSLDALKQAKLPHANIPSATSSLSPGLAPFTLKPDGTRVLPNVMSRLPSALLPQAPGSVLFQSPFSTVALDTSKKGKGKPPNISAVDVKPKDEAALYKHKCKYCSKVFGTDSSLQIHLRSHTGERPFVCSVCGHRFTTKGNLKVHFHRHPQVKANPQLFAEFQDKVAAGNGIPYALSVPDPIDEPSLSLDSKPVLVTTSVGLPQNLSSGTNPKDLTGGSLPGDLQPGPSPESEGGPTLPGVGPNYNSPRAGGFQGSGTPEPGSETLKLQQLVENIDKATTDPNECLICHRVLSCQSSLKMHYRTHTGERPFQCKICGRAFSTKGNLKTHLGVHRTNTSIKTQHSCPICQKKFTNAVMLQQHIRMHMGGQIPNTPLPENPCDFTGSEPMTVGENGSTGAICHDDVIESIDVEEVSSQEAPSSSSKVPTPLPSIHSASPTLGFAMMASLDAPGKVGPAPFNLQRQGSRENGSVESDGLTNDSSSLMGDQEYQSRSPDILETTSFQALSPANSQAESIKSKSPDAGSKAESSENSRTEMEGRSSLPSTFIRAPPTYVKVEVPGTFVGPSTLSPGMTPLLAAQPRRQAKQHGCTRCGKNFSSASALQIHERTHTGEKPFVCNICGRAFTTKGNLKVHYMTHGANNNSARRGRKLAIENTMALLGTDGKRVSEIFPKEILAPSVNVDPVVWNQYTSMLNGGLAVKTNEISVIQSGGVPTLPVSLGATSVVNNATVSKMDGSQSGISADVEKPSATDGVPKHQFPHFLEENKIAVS
Technique: universal PBM
Molecule type: double-stranded DNA, one strand shown
Sample: in vitro
Tested at: 600 nM
Notes: 8-mer, flanks averaged, mean of replicates
Reading: higher = stronger binding
Measurement: E-score
GATTGCGC: 0.0202
CGTTGCGA: -0.0993
AACTGACC: -0.198
CCCGTCTA: -0.181
ACCACAGC: -0.276
ACACCGGA: -0.222
CTGCGACA: -0.116
CGTCTCTC: -0.0578
GAGACACC: -0.188
CTGTTAAA: 0.141
TACTCGCA: 0.0704
ATTTTATG: 0.314
ACGGGTAG: -0.144
AACGCCGA: -0.0921
ACTTTTTA: 0.29
GGCTGAAC: -0.236
AGGTAGAT: -0.00572
ATAACGAG: 0.228
GCTTATCA: 0.0167
TAGAGTGA: 0.0775
CAGCGCCC: -0.279
GGGGCTCA: -0.309
ACAAGGGG: -0.147
AGCCATAT: 0.242
GGCAATCA: 0.0115

Set 3
Target: Ras GTPase-activating protein-binding protein 1, C-terminal RGG region (G3BP1, Homo sapiens, UniProt Q13283)
Sequence of UniProt Q13283 (whole entry, looked up): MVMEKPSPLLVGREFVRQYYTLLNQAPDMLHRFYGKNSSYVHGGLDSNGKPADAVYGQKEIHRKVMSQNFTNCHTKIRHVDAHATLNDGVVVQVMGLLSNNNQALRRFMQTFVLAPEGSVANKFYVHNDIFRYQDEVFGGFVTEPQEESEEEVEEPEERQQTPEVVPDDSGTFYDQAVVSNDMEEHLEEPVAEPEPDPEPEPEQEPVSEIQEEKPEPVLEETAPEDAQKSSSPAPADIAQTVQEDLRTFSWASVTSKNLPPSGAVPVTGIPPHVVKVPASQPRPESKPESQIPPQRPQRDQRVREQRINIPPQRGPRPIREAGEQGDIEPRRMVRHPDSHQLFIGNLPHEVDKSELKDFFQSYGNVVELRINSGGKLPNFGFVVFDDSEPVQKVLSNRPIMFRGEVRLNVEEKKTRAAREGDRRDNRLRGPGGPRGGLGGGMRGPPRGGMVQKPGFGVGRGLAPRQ
Technique: RNA Bind-n-Seq
Molecule type: RNA
Sample: in vitro
Tested at: 1 µM
Notes: whole 134-nt RNA, ends assumed
Together with: 150 mM KCl
Reference: input library
Reading: higher = stronger binding
Measurement: log2 enrichment
Constant ends, left off below: GGGAGUUCUACAGUCCGACGAUC … UGGAAUUCUCGGGUGUCAAGG
CACAGACAACACGCACCCACACAGACACAGAGGGAAGGGGUUGGGAUGGGGACAGGGUGCACAGCAGGGCGGGGUAGGACCCAAACCCCU: -0.299
UUGAAAGAAUUUGCCAACUUUGACUUUGAUGUCUGGAGGAAAAAGUAUAUGCGUUGGAUGAAUCACAAAAAGUCUCGAGUGAUGGAUUUC: -1.93
GUCCUGUGCUACACAUCGUAUGUACCGAAUCGGGGUUUGGGGAAAGGGGAAAAAGGGGAAAGUAUUAUGUUACGCCGUUCGGAUCUGCAC: 2.57
CCUGUGCUACACAUCGUAUGUACCGAAUCAAACCCCCCCAAAUUUUUUUAAAUUUUUAAAAAAGUAUUAUGUUACGCCGUUCGGAUCUGC: -1.14
UGGCCCUGGUGGCAUGCGGGGAGGAAGAGGUGGCCUCAUGGAUCGUGGUGGUCCCGGUGGAAUGUUCAGAGGUCGCCGUGGUGGAGACAG: 3.15
CUGUGCUACACAUCGUAUGUACCGAAUCGGGGUUUUUUUGGGGUUUUUUUGGUUUUUUUGGGAAAGUAUUAUGUUACGCCGUUCGGAUCU: -1.22
UAACUUUAGAGGAGGAUCUGAUGGAUAUGGCAGUGGACGUGGAUUUGGGGAUGGCUAUAAUGGGUAUGGAGGAGGACCUUGAGGUGGCAA: -0.995
UGGGAGGUGGAUUUUGUUUAUUUUUUUAGCUCAUUUCCAGGGGUGGGAAUUUUUUUUUAAUAUGUGUCAUGAAGAAAGUUGUUUUUGAAA: 1.39
CAAGUCCUGUGCUACACAUCGUAUGUACCGAAUCGGUUUUUGGUGGUUUUUUUGGAAAGUAUUAUGUUACGCCGUUCGGAUCUGCACUUC: -1.55
CCUGUGCUACACAUCGUAUGUACCGAAUCAAACCCCCAAACCCCCCCAAACCCCCCCAAAAAAGUAUUAUGUUACGCCGUUCGGAUCUGC: -0.914
GCAGGAAGUAAAAACAAAUGGAAAUGCUUCGGAUAGUCGCAGGGGUGGGGGUUGCUAAGGAAAGGGUGGGAUGGGAGUGGGUAAAGAGUU: 0.858
ACCAUGCAGGUGGGCAUCUUUGGGAAGUGGGGCAAGGGGGGGAUAGGGAGGGAGGUAACACUUUGGGAACAGGUGGUCCCAGGUCGUUUC: 2.1
UUAAAGAAAUGUCCACAAGUAACUUUGAAUCAUCUCCUGAAGUAGAAGAAAGGCCUGCUGUGUCUUUGACUCUUGAUCAGAGCCAGUCAC: -1.2
CACAGACAACACGCACCCACACAGACACAGAGGGAAGGGGCUGGGAUGGGGACAGGGUGCACAGCAGGGCGGGGUAGGACCCCAGCCCCU: -0.46

Set 4
Target: RNA binding protein fox-1 homolog 2, RRM domain, GST-SBP tag (RBFOX2, Homo sapiens, UniProt O43251-10, residues 100-194)
Technique: RNA Bind-n-Seq
Molecule type: RNA
Sample: in vitro
Tested at: 365 nM
Notes: natural RNA segment, single round, ends assumed
Reference: no-protein control
Reading: higher = stronger binding
Measurement: RBNS enrichment (R)
Constant ends, left off below: GGGAGUUCUACAGUCCGACGAUC … UGGAAUUCUCGGGUGCCAA
Target sequence (chain): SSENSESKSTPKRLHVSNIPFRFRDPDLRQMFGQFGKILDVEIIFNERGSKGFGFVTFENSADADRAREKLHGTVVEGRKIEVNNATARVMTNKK
UUUUUUUUCUUUCUUAAGCAGCCCUUGUGCUUCAGUAUGUCCUUGUCAUCAGUAUUAACUCUGGGAUACUCCGGGCUCUGUGUCUUUCCCUGUGAGGCGACAGUACAUGU: 0.702
GGGCAAAGAUGCCCAUGACGACAUAGUCACCAGUGAAGUGGAUUUUACCUCAGAAGCAGUGACAGCCGCAGAAACCACAGAGGCGCUCCGCGCUGAAGAACUUACCGAAG: 0.269
AUAUAACCACCAAGGAUGUGUUGGCCUUUGGAGUUCCCCUUUAGGUUCCUAGUGAUGUGGAGGUUUAUGGGUGAAAAAUUAGUGGAGAGGGAACUCCUCUCCCCCAUUUU: 1.06
UGCUUGGAAAGAUGGCUCUCAGCAAAAUCUGUUUGUCUUACACGUCUCUCAGGGAAAAAACAUGCAGUCUUCAAGCAUCUUCCAUGUACAUUCUAUCUGGGUGAACACCU: 0.914
AUUUUAUAUGUCUUGGAAAUUUAAUAAUUUAGUGUUCUCAGUAUCAAUUGGUGUUUUUGUUAAACGAAUGAAUCAUCUGUUCAUGCAUGCUCUACUUUGAUAUUAUAACC: 0.668
AGUGUGUUAGCAUGGAACAGAACGCCUCUCACAAAACAAAGGACCGUUUUACAAAGGAUGAUCCGACAGUGUGUCGACAUAAACUUUUACAACUGCACAGCAGCCAAAAA: 3.46
GAGGUCAACAGCAGGCAUGGGGAGCCGAGUCUUCUGUGCUCAGGUCCUCACGCUGCAGACGCCCCCUAGAGGAACUUUCCUUCCUUUCCAGCAUUCCCCACAGCACUGCC: 0.297
UCCUGCUCGGCUUUUCGCUUGAACAUUCCCUUGAUCUCAUCAGUUCUGAGCGGGUCAUGGGGCAACACGGUUAGCGGGGAGAGCACGGGGUAGCCGGAGAAGGGCCUCUG: 0.908
CGUGUUUGCAUUCUUGUUAAUUUUUUUUUUGGCUUUGGAAUGUGACACAGCCUUUUUGAUCAUUUCUUUGAUGUGAAAAGCAUCUUUGGUUAUCAGUUAAAUUGAGGUGG: 0.438
ACUGUGUAAGGAAAAUUACUUUUGUAUUGUUUGUUGGUUAUUUCCAAAAUAACCACCUUGUAAAUACCCUUAGAGCCAGCCCUGAUGCUUUACAUCAUUGCUACUUGAUU: 0.315
CAAUCACACAUUCUUCUCAGAAGAGAGGCAUAGAGCAUCCUGGGUUGCAAAGCCACAGAACAUUAUUGAACAUGUGAUGGGGCAGUGACAAACCUCUGCUGCUUCCCUCU: 0.138
UUUUGGGGAAGGGGAGGAUAGCGAGAAGAUGCUCUGGGGGUUUUGUUUUUGCUUUUCCUUCAGGGUUUUAUUUUUGACUGUUUUGUUUUCUUGUUGGCCAUUUCUGUAUU: 1.17

Excerpt of the above (set 2):
GGCTGAAC: -0.236
AGGTAGAT: -0.00572
ATAACGAG: 0.228
GCTTATCA: 0.0167
TAGAGTGA: 0.0775
CAGCGCCC: -0.279
GGGGCTCA: -0.309
ACAAGGGG: -0.147
AGCCATAT: 0.242
